Assay results gathered from unrelated publications.
Each line is one published result; not all experiments were run side by side.
U2AF2: U2AF2 148-342 (Homo sapiens, UniProt P26368)
Sequence of UniProt P26368 (whole entry, looked up): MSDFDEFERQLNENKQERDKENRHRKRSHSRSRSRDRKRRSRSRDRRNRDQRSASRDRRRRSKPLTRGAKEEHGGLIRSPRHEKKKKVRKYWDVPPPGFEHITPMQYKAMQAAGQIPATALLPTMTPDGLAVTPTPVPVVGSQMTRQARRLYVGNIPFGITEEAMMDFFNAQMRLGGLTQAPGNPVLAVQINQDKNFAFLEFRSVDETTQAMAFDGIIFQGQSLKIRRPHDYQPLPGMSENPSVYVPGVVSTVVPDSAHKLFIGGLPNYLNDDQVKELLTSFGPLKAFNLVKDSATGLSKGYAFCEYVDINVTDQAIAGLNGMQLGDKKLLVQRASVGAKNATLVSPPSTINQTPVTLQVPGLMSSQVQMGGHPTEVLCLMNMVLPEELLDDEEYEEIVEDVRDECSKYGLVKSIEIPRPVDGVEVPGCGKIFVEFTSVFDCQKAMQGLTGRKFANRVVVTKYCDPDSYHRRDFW
SMC6: SMC6 (Saccharomyces cerevisiae, UniProt Q12749)
Sequence of UniProt Q12749 (whole entry, looked up): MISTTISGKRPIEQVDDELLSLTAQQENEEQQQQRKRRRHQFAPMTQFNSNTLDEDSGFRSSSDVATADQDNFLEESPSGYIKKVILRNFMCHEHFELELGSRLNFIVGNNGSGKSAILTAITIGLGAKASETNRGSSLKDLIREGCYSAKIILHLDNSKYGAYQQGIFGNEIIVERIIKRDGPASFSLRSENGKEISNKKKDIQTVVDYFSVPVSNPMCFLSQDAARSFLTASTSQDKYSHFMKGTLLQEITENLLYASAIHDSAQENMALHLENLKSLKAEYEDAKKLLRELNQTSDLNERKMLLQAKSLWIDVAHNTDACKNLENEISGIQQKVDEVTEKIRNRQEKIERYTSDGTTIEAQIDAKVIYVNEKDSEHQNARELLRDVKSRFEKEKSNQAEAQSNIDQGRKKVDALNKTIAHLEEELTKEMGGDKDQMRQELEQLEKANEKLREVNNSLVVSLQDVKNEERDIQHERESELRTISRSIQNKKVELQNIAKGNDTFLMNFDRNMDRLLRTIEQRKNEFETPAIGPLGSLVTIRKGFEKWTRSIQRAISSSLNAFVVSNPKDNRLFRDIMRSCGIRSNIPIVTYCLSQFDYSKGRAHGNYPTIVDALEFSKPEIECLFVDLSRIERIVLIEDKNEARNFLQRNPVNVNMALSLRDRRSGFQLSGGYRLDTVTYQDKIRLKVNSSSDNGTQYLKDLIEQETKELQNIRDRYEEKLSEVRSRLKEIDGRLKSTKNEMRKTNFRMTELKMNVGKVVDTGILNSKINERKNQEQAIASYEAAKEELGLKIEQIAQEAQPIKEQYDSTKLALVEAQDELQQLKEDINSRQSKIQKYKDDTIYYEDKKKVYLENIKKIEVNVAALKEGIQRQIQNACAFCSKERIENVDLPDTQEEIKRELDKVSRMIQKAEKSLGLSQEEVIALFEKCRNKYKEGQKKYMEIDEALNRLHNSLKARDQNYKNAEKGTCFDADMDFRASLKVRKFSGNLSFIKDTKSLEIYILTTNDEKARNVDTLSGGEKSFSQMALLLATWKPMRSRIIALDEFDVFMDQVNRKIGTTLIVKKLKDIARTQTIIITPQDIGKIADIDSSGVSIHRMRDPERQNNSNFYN
CBX8: CBX8 (Homo sapiens, UniProt Q9HC52)
Sequence of UniProt Q9HC52 (whole entry, looked up): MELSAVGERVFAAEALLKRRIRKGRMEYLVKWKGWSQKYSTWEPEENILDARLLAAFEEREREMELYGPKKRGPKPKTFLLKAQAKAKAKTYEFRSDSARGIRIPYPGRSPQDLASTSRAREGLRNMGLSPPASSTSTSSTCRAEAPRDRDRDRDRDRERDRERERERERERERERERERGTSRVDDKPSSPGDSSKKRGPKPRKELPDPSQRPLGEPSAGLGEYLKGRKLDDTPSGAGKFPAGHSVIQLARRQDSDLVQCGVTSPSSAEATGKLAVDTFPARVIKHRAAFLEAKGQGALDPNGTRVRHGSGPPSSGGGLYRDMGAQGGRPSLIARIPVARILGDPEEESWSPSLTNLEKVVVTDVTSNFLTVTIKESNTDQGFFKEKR
B1: human exportin-2; sequence looked up; chain MELSDANLQTLTEYLKKTLDPDPAIRRPAEKFLESVEGNQNYPLLLLTLLEKSQDNVIKVCASVTFKNYIKRNWRIVEDEPNKICEADRVAIKANIVHLMLSSPEQIQKQLSDAISIIGREDFPQKWPDLLTEMVNRFQSGDFHVINGVLRTAHSLFKRYRHEFKSNELWTEIKLVLDAFALPLTNLFKATIELCSTHANDASALRILFSSLILISKLFYSLNFQDLPEFFEDNMETWMNNFHTLLTLDNKLLQTDDEEEAGLLELLKSQICDNAALYAQKYDEEFQRYLPRFVTAIWNLLVTTGQEVKYDLLVSNAIQFLASVCERPHYKNLFEDQNTLTSICEKVIVPNMEFRAADEEAFEDNSEEYIRRDLEGSDIDTRRRAACDLVRGLCKFFEGPVTGIFSGYVNSMLQEYAKNPSVNWKHKDAAIYLVTSLASKAQTQKHGITQANELVNLTEFFVNHILPDLKSANVNEFPVLKADGIKYIMIFRNQVPKEHLLVSIPLLINHLQAESIVVHTYAAHALERLFTMRGPNNATLFTAAEIAPFVEILLTNLFKALTLPGSSENEYIMKAIMRSFSLLQEAIIPYIPTLITQLTQKLLAVSKNPSKPHFNHYMFEAICLSIRITCKANPAAVVNFEEALFLVFTEILQNDVQEFIPYVFQVMSLLLETHKNDIPSSYMALFPHLLQPVLWERTGNIPALVRLLQAFLERGSNTIASAAADKIPGLLGVFQKLIASKANDHQGFYLLNSIIEHMPPESVDQYRKQIFILLFQRLQNSKTTKFIKSFLVFINLYCIKYGALALQEIFDGIQPKMFGMVLEKIIIPEIQKVSGNVEKKICAVGITKLLTECPPMMDTEYTKLWTPLLQSLIGLFELPEDDTIPDEEHFIDIEDTPGYQTAFSQLAFAGKKEHDPVGQMVNNPKIHLAQSLHKLSTACPGRVPSMVSTSLNAEALQYLQGYLQAASVTLL
B2: cystatin A (human); sequence looked up; chain MIPGGLSEAKPATPEIQEIVDKVKPQLEEKTNETYGKLEAVQYKTQVVAGTNYYIKVRAGDNKYMHLKVFKSLPGQNEDLVLTGYQVDKNKDDELTGF
Sequence of UniProt P38632 (whole entry, looked up): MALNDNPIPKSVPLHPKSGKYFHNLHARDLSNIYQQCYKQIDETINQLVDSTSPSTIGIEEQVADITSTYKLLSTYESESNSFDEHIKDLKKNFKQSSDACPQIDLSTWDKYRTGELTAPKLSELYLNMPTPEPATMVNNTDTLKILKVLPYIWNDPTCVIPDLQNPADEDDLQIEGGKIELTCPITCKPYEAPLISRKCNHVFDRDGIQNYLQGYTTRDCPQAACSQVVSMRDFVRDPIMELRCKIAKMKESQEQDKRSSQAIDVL
Sequence of UniProt P29496 (whole entry, looked up): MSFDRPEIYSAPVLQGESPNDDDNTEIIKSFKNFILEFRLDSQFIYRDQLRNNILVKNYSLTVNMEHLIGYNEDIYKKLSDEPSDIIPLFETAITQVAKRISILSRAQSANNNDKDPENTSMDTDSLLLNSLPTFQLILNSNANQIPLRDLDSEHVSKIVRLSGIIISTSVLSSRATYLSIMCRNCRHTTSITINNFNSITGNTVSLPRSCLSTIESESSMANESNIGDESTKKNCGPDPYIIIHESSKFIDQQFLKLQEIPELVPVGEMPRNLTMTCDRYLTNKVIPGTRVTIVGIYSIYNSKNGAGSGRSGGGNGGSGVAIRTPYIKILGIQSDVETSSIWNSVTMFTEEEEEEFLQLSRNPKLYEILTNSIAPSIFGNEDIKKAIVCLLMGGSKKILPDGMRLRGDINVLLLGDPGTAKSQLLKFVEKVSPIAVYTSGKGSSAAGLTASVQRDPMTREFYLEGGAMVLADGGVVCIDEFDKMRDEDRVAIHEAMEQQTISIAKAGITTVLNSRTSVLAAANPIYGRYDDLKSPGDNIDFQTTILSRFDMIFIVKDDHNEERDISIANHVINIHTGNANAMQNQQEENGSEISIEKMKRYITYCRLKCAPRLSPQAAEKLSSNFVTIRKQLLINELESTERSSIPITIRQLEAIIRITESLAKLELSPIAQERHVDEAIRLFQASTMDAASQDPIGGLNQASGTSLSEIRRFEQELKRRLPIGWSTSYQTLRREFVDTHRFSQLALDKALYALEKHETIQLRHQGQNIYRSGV
Sequence of UniProt P40026 (whole entry, looked up): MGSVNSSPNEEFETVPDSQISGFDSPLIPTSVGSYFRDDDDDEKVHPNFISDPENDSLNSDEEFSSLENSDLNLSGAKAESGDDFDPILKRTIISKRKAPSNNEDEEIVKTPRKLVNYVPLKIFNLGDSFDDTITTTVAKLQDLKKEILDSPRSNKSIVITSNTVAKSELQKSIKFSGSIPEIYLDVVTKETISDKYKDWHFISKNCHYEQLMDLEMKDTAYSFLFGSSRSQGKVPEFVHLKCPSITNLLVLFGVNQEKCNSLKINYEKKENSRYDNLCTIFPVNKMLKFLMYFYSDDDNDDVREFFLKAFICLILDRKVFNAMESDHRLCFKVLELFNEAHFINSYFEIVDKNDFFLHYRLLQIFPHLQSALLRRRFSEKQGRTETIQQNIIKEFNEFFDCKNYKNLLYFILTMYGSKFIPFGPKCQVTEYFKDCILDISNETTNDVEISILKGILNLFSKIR
Sequence of UniProt Q8WYA0 (whole entry, looked up): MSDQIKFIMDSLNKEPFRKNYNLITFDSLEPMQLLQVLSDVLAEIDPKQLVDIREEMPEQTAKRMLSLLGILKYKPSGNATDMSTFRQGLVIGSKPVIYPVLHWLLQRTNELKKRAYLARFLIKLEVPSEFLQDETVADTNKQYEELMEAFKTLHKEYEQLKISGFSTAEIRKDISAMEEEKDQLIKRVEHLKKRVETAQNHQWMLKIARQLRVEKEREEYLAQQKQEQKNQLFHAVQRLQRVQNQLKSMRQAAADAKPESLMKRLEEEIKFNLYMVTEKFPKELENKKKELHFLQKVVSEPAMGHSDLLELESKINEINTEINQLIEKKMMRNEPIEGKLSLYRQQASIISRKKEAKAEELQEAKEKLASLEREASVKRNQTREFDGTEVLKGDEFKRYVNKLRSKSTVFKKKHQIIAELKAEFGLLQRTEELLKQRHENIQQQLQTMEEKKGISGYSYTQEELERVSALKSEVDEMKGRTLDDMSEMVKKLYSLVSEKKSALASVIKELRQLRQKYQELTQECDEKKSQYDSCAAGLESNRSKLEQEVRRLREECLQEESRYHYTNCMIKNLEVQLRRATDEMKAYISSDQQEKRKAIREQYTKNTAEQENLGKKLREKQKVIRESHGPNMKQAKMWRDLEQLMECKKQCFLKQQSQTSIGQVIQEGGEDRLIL
Sequence of UniProt Q07913 (whole entry, looked up): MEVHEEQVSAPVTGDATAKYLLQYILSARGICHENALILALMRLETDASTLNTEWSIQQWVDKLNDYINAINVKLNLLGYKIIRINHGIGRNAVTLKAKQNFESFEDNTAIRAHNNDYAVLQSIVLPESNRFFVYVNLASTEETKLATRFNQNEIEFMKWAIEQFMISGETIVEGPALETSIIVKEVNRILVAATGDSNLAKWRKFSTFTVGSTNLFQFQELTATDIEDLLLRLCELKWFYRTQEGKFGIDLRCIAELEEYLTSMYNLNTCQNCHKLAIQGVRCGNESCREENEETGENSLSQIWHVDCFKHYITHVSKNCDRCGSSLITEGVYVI
Sequence of UniProt P35226 (whole entry, looked up): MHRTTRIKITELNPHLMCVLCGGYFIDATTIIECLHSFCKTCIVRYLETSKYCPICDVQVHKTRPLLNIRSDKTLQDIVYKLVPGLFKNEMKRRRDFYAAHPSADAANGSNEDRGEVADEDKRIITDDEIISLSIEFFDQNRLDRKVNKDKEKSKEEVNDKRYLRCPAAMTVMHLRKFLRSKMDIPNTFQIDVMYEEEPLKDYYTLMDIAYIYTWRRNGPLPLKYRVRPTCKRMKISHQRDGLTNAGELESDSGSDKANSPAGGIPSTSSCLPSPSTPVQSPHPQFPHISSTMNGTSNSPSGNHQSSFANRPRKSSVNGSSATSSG

| Substance | target or system | assay | system | conditions | how to read | endpoint | value |
| --- | --- | --- | --- | --- | --- | --- | --- |
| B1 (human exportin-2) | PP6C (human) | co-immunoprecipitation, IP-MS | CYB5R4 knockout cells | concentration not given | reference: CYB5R4 knockout over parental | log2 fold change | 0.04 |
| CUCUCUUUG (ssRNA) | U2AF2 | sequencing of bound RNA | RNA | motif only | – | Kd | 8.15 µM |
| SLC25A6 (Homo sapiens, UniProt P12236) | H2BC5 (Homo sapiens, UniProt P58876) | cross-linking MS | – | hits only | – | interaction screen | cross-linked |
| HTA1 (Saccharomyces cerevisiae, UniProt P04911) | HHT1 (Saccharomyces cerevisiae, UniProt P61830) | cross-linking MS | – | hits only | – | interaction screen | cross-linked |
| H2BC18 (Homo sapiens, UniProt Q5QNW6) | H2BC9 (Homo sapiens, UniProt Q93079) | cross-linking MS | – | hits only | – | interaction screen | cross-linked |
| IFT81 (Homo sapiens, UniProt Q8WYA0) | IFT74 (Homo sapiens, UniProt Q96LB3) | cross-linking MS | – | hits only | – | interaction screen | cross-linked |
| CUUUCCUUU (ssRNA) | U2AF2 | sequencing of bound RNA | RNA | motif only | – | Kd | 0.39 µM |
| MMS21 (Saccharomyces cerevisiae, UniProt P38632) | SMC6 | cross-linking MS | – | hits only | – | interaction screen | cross-linked |
| MYH9 (Homo sapiens, UniProt P35579) | PSMD1 (Homo sapiens, UniProt Q99460) | cross-linking MS | – | hits only | – | interaction screen | cross-linked |
| B2 (cystatin A) | PP6C (human) | co-immunoprecipitation, IP-MS | CYB5R4 knockout cells | concentration not given | reference: CYB5R4 knockout over parental | log2 fold change | -0.00399 |
| milbemycin oxime | CDR1 (Candida albicans, UniProt Q5ANA3) | binding, microscale thermophoresis | – | 19.5 nM | – | fraction bound | 9.33% |
| MCM5 (Saccharomyces cerevisiae, UniProt P29496) | PSF3 (Saccharomyces cerevisiae, UniProt Q12146) | cross-linking MS | – | hits only | – | interaction screen | cross-linked |
| NSE1 (Saccharomyces cerevisiae, UniProt Q07913) | SMC6 | cross-linking MS | – | hits only | – | interaction screen | cross-linked |
| Histone H2B type 1-C/E/F/G/I (Homo sapiens, UniProt P62807) | CBX8 | cross-linking MS | – | hits only | – | interaction screen | cross-linked |
| ORC2 (Saccharomyces cerevisiae, UniProt P32833) | ORC5 (Saccharomyces cerevisiae, UniProt P50874) | cross-linking MS | – | hits only | – | interaction screen | cross-linked |
| KRE29 (Saccharomyces cerevisiae, UniProt P40026) | NSE5 (Saccharomyces cerevisiae, UniProt Q03718) | cross-linking MS | – | hits only | – | interaction screen | cross-linked |
| BMI1 (Homo sapiens, UniProt P35226) | CBX8 | cross-linking MS | – | hits only | – | interaction screen | cross-linked |

Repeated from above:
| Substance | target or system | assay | system | conditions | how to read | endpoint | value |
| --- | --- | --- | --- | --- | --- | --- | --- |
| SLC25A6 (Homo sapiens, UniProt P12236) | H2BC5 (Homo sapiens, UniProt P58876) | cross-linking MS | – | hits only | – | interaction screen | cross-linked |
| HTA1 (Saccharomyces cerevisiae, UniProt P04911) | HHT1 (Saccharomyces cerevisiae, UniProt P61830) | cross-linking MS | – | hits only | – | interaction screen | cross-linked |
